Published values pooled from the literature.
Compare with care: the assays were run in different laboratories. Numbers after ± are the reported error.
Organism: Escherichia coli

Under “average filament length”, `[Cl-].[Cl][Ru-4]123([n+]4ccccc4-c4cccc([n+]41)-c1cccc[n+]12)[n+]1ccc(-c2ccccc2)c2ccc4c(-c5ccccc5)cc[n+]3c4c21` is recorded as 39 µm (bacterial cytological profiling; BL21(DE3); MIC, 24 h).
The MBC of `CCn1cc(/C=C/c2ccc3ccccc3[n+]2CC)c2ccccc21` is reported as 16 ± 0.001 µg/mL (780; 24 h).
`CN1CCC(NCCC2(Cc3ccc(Cl)cc3)CCCCC2)CC1` has an EC50 of > 60 µM (activator; TOP10F′; 3 h).
For `Cc1cc(O)cc2c1C(=O)c1c(cc3oc(=O)cc(-c4ccccc4)c3c1O)C2=O`, “inhibition zone diameter” read 12 mm (MTCC 739; 100 µg/disc).
Under “inhibition zone diameter”, `CC(=O)[O-].O.O.O.O.[Co+2].[O-]c1ccc(Br)cc1C=NCCN1CCOCC1` is recorded as 17 mm (20 µL of 100 µM per disc).
For `c1ccc(CN2CCOCCOCCN(CCCCCCCCCCCCCCN3CCOCCOCCN(CCCCCCCCCCCCCCN4CCOCCOCCN(Cc5ccccc5)CCOCCOCC4)CCOCCOCC3)CCOCCOCC2)cc1`, growth inhibition read “no inhibition” (tetracycline-resistant; up to 1/2 MIC, outcome: no inhibition).
`CCCCCCC1N=C(N)N=C(N)N1c1ccc(Cl)cc1.Cl` (racemic) gave an MIC90 of > 128 µM (broth microdilution; ATCC 25922; without thymidine).
The inhibition of `CNC1=C([N+](=O)[O-])C2(C(=O)Nc3ccc(Cl)cc32)C2=C(O1)C(=O)c1ccccc1C2=O` (stereo not shown) is reported as 84.3% (microbial growth; ATCC25922; 250 µg/mL, 24 h).
`C[C@]1(COC(=O)c2ccccc2O)[C@H](C(=O)O)N2C(=O)/C(=C/c3ccccn3)[C@H]2S1(=O)=O` — result for “MIC of ceftazidime”: 0.25 µg/mL (broth microdilution; TG1 expressing DHA-1; 16 µg/mL).
For `CC[C@H](C)[C@H](NC(=O)[C@H](CS)NC(=O)[C@@H](NC(=O)[C@@H]1CCCN1C(=O)[C@H](Cc1ccccc1)NC(=O)[C@H](CC(N)=O)NC(=O)[C@@H](NC(=O)[C@H](CC(=O)O)NC(=O)CCNC(=O)CNC(=O)O[C@H]1CC[C@@]2(C)C(=CC[C@H]3[C@@H]4CC[C@H]([C@H](C)CCCC(C)C)[C@@]4(C)CC[C@@H]32)C1)[C@@H](C)O)[C@@H](C)CC)C(=O)N[C@@H](Cc1ccccc1)C(N)=O`, “amphiregulin protein level” read “increased” (mouse, bronchoalveolar lavage fluid; intratracheal, 25 nmol per mouse, 12 h).
`CC(C)C[C@@H]1NC(=O)[C@H](CCCCN)NC(=O)CNC(=O)[C@H]2CCCN2C(=O)[C@H](CCCCN)NC(=O)[C@H](CC(C)C)NC(=O)[C@H](CCCCN)NC(=O)[C@H](CC(C)C)NC(=O)[C@H](CCCCN)NC(=O)C(N)CCC=CCCC(C(N)=O)NC(=O)[C@H](CCCCN)NC(=O)[C@H](CC(C)C)NC(=O)[C@H](CCCCN)NC1=O` (stereo partly shown): “outer membrane permeabilization” ~70% (NPN uptake; ATCC 25922; 1× MIC, 1 h, pH 7, 37 °C; baseline: colistin).
`O=S(=O)(c1ccccc1)N(CCc1nnc(S)o1)c1ccccc1` gave a relative inhibition of 20.7% (cup plate method; 100 µg/mL; baseline: cotrimoxazole).
With `CCCCCCCCCC1CC2CCCC3CC(CCCCCCCCC)NC(=N1)N23` (stereo not shown) the IC50 was 6.33 µM (bacterial growth; ATCC 35218).
`CC[C@H](C)[C@H](NC(=O)[C@H](CCCCN)NC(=O)[C@H](CC(N)=O)NC(=O)[C@H](Cc1c[nH]c2ccccc12)NC(=O)[C@H](Cc1ccccc1)NC(=O)[C@H](CCCCN)NC(=O)[C@H](CCCCNC(=N)N)NC(=O)[C@H](CC(C)C)NC(=O)[C@H](Cc1c[nH]c2ccccc12)NC(=O)[C@H](CCCCN)NC(=O)[C@H](CCCCNC(=N)N)NC(=O)[C@H](CC(C)C)NC(=O)CNC(C)=O)C(=O)N[C@@H](CCCCN)C(=O)N[C@@H](CCCCNC(=N)N)C(N)=O`: “MIC fold increase” 2 fold (ATCC 25922; 12 h, added: plasma pretreatment; baseline: MIC without plasma pretreatment).
`CC[C@H](C)[C@H](NC(=O)[C@H](CCCCN)NC(=O)[C@H](CC(N)=O)NC(=O)CNC(=O)[C@@H](NC(=O)[C@H](C)NC(=O)[C@H](CCCNC(=N)N)NC(=O)[C@H](CC(C)C)NC(=O)[C@H](CCCCN)NC(=O)[C@H](CCCCN)NC(=O)[C@H](CCCCN)NC(=O)[C@H](C)NC(=O)[C@H](CCCCN)NC(=O)[C@@H]1CSSC[C@H](NC(=O)[C@H](CCCNC(=N)N)NC(=O)CN)C(=O)N[C@@H](CC(N)=O)C(=O)N[C@@H](CC(C)C)C(=O)N[C@@H](CC(C)C)C(=O)N1)C(C)C)C(=O)N[C@@H](CCCCN)C(=O)N[C@@H](CCC(=O)O)C(=O)N[C@H](C(=O)N[C@@H](CCCCN)C(=O)N[C@@H](CC(N)=O)C(=O)N[C@H](C(=O)N[C@H](C(=O)N[C@@H](Cc1ccccc1)C(=O)N[C@@H](CC(N)=O)C(=O)N[C@@H](CCCNC(=N)N)C(=O)O)C(C)C)C(C)C)[C@@H](C)CC`: “time to complete killing” ≤ 90 min (time-kill; ATCC 25922; 25 µM).
`CCN1CCN(Cn2nc(C34CC5CC(CC(C5)C3)C4)n(-c3ccccc3)c2=S)CC1`: “inhibition zone diameter” < 10 mm (IFO 3301; 200 µg/disc, 24 h, 37 °C).
`O=c1c(Cl)c(Cl)cnn1Cc1ccccc1Cl`: “concentration for full growth inhibition” 10 µM (wild type, minimal medium; anaerobic).
Under “biofilm mass reduction”, `N=C(N)NCCC[C@@H]1NC(=O)[C@H](CCCNC(=N)N)NC(=O)[C@H](CCCNC(=N)N)NC(=O)[C@H](Cc2ccc3ccccc3c2)NC(=O)[C@H](Cc2c[nH]c3ccccc23)NC(=O)[C@H](Cc2ccc3ccccc3c2)NC(=O)[C@H](CCCNC(=N)N)NC1=O` is recorded as 40 to 45% (XTT; ATCC BAA-2452; MIC).
`Fc1cc2nc3c4cccnc4c4ncccc4c3nc2cc1F.[Cl-].[Cl-].[Ru+2].c1ccncc1.c1ccncc1.c1ccncc1.c1ccncc1` gave an MIC90 of 8 µM (LED irradiation 470 nm).
`c1ccc(CN2CCOCCOCCN(CCCCCCCCCCN3CCOCCOCCN(CCCCCCCCCCN4CCOCCOCCN(Cc5ccccc5)CCOCCOCC4)CCOCCOCC3)CCOCCOCC2)cc1` gave a fold enhancement of 23 fold (tetracycline MIC, checkerboard; tetracycline-resistant (pBR322); 1/2 MIC, added: tetracycline; baseline: MIC alone over combination).
The biofilm eradication of `CCCCCCCCCCCCCCCC(=O)N[C@@H](CCN)C(=O)N[C@H](C(=O)N[C@@H](CCN)C(=O)N[C@H]1CCNC(=O)[C@H]([C@@H](C)O)NC(=O)[C@H](CCN)NC(=O)[C@H](CCN)NC(=O)[C@H](CC(C)C)NC(=O)[C@@H](CC(C)C)NC(=O)[C@H](CCN)NC1=O)[C@@H](C)O` is reported as > 80% (6 µg/mL).
Under bacterial burden, `CC(=O)N[C@H]1[C@H](Oc2ccccc2-c2cccc(C(=O)O)c2)O[C@H](CO)[C@H](O)[C@@H]1O` is recorded as “decreased” (UPEC CFT073, C3H/HeN mice, chronic cystitis, bladder; transurethral, 50 mg/kg, 6 h posttreatment; baseline: vehicle).
`CC(=NNC(=N)N)c1nnn(-c2ccc(C#CC3(O)CCCCC3)cc2)c1C` — result for “inhibition zone diameter”: 30.7 ± 0.47 mm (ATCC 25922; concentration not given).
`Cc1ccc(C(=O)Sc2cccccc2=O)cc1`: “reduction in viable count” ~3 log10 CFU (time-kill; ATCC 35218; 16 x MIC80, 6 h).
`C[C@]1(COC(=O)c2ccc(O)c(O)c2)[C@H](C(=O)O)N2C(=O)/C(=C/c3ccccn3)[C@H]2S1(=O)=O`: “MIC of ceftazidime” ≤ 0.06 µg/mL (broth microdilution; TG1 expressing DHA-1; 16 µg/mL).
Under “inhibition zone diameter”, `Cc1cc(O)c2c(c1)C(=O)c1cc3oc(=O)cc(-c4ccccc4)c3c(O)c1C2=O` is recorded as 12 mm (MTCC 739; 100 µg/disc).
Under “MIC of tetracycline”, `c1ccc(CN2CCOCCOCCN(CCCCCCCCN3CCOCCOCCN(CCCCCCCCN4CCOCCOCCN(Cc5ccccc5)CCOCCOCC4)CCOCCOCC3)CCOCCOCC2)cc1` is recorded as 30 ± 8 µM (tetracycline-resistant; 125 µM).
Under “inhibition zone diameter”, `Clc1ccc(CSc2nnc(C34CC5CC(CC(C5)C3)C4)n2-c2ccccc2)cc1` is recorded as < 10 mm (IFO 3301; 200 µg/disc, 24 h, 37 °C).
`CC[C@H](C)[C@H](NC(=O)CNC(=O)[C@H](CC(N)=O)NC(=O)[C@H](CCCNC(=N)N)NC(=O)[C@@H](NC(=O)[C@H](CC(N)=O)NC(=O)[C@H](CCCNC(=N)N)NC(=O)CNC(=O)[C@H](CCSC)NC(=O)[C@H](CCCCN)NC(=O)[C@H](CCC(=O)O)NC(=O)[C@@H](NC(=O)[C@H](CCCCN)NC(=O)[C@H](CCCCN)NC(=O)[C@H](Cc1ccccc1)NC(=O)[C@@H](NC(=O)[C@H](CCCCN)NC(=O)[C@H](Cc1c[nH]c2ccccc12)NC(=O)[C@@H](N)CCCCN)C(C)C)[C@@H](C)CC)[C@@H](C)CC)C(=O)N[C@H](C(=O)N[C@@H](CCCCN)C(=O)N[C@@H](C)C(=O)NCC(=O)N1CCC[C@H]1C(=O)N[C@@H](C)C(=O)N[C@H](C(=O)N[C@@H](C)C(=O)N[C@H](C(=O)N[C@@H](CC(C)C)C(=O)NCC(=O)N[C@@H](CCC(=O)O)C(=O)N[C@@H](C)C(=O)N[C@@H](CCCCN)C(=O)N[C@@H](C)C(=O)N[C@@H](CC(C)C)C(N)=O)C(C)C)[C@@H](C)CC)C(C)C` has a dead cells of < 30% (LIVE/DEAD staining; 10 mM phosphate buffer; MIC, 30 min, pH 7.4, 37 °C).
`O=S(=O)(c1ccccc1)N(CCc1nnc(S)o1)c1ccc(Cl)cc1` gave a relative inhibition of 20.7% (cup plate method; 100 µg/mL; baseline: cotrimoxazole).
The IC50 of `COc1ccc(/N=N/C(=S)N2CCCCC2)cc1` is reported as > 50 µM (microbial growth; ATCC 8739, ATCC8739; 24 h).
The fold enhancement of `c1ccc(CN2CCOCCOCCN(CCCCCCCCCCCCN3CCOCCOCCN(CCCCCCCCCCCCN4CCOCCOCCN(Cc5ccccc5)CCOCCOCC4)CCOCCOCC3)CCOCCOCC2)cc1` is reported as 16 fold (tetracycline MIC, checkerboard; tetracycline-resistant (pBR322); 1/2 MIC, added: tetracycline; baseline: MIC alone over combination).
For `NC(=O)[C@@H]1Cc2c([nH]c3ccccc23)[C@@H](c2ccc(Cl)cc2Cl)N1`, the growth inhibition was 0% (BL21(DE3); 250 µM, 18 h).
For `CC(C)C[C@H](NC(=O)[C@@H](N)CCCNC(=N)N)C(=O)N[C@@H](Cc1ccc(O)cc1)C(=O)N[C@@H](CCCNC(=N)N)C(N)=O`, the EC50 was 12.1 ± 1.03 µM (bactericidal activity, virtual colony count; ATCC 25922; 2 h).

A few entries again:
Under “inhibition zone diameter”, `Cc1cc(O)c2c(c1)C(=O)c1cc3oc(=O)cc(-c4ccccc4)c3c(O)c1C2=O` is recorded as 12 mm (MTCC 739; 100 µg/disc).
`O=S(=O)(c1ccccc1)N(CCc1nnc(S)o1)c1ccc(Cl)cc1` gave a relative inhibition of 20.7% (cup plate method; 100 µg/mL; baseline: cotrimoxazole).
